Published values of several laboratories.
Each numbered part is a random draw from the data of one study; scales do not carry over between parts.
Chain of UniProt P10721 (whole entry, unmodified, looked up): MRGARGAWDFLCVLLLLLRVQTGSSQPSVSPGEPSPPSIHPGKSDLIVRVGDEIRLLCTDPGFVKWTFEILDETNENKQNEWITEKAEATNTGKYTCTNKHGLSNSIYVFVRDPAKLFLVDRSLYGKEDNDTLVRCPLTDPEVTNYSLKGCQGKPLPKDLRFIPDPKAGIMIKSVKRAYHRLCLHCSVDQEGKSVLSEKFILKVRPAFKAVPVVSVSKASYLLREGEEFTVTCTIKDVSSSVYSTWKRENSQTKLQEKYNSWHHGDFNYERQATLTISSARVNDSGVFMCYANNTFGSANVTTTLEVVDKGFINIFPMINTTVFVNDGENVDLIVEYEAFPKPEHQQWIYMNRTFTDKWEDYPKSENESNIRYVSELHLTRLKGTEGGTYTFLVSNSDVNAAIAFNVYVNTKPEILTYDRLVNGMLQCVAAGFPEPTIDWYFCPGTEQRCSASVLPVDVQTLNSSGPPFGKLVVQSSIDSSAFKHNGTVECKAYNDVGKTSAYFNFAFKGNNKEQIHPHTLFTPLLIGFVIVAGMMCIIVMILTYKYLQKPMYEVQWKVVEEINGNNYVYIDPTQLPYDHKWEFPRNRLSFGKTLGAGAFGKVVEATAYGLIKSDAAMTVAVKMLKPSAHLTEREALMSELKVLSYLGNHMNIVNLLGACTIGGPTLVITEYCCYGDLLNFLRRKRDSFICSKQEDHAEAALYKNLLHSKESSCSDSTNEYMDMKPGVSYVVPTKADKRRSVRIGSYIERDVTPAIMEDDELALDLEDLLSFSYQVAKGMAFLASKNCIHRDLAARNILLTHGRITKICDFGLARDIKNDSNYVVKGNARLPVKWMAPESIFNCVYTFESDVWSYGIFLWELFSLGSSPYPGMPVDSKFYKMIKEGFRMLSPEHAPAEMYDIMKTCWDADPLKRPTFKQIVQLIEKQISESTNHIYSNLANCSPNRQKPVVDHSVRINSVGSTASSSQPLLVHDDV
Chain of UniProt Q08345 (whole entry, looked up): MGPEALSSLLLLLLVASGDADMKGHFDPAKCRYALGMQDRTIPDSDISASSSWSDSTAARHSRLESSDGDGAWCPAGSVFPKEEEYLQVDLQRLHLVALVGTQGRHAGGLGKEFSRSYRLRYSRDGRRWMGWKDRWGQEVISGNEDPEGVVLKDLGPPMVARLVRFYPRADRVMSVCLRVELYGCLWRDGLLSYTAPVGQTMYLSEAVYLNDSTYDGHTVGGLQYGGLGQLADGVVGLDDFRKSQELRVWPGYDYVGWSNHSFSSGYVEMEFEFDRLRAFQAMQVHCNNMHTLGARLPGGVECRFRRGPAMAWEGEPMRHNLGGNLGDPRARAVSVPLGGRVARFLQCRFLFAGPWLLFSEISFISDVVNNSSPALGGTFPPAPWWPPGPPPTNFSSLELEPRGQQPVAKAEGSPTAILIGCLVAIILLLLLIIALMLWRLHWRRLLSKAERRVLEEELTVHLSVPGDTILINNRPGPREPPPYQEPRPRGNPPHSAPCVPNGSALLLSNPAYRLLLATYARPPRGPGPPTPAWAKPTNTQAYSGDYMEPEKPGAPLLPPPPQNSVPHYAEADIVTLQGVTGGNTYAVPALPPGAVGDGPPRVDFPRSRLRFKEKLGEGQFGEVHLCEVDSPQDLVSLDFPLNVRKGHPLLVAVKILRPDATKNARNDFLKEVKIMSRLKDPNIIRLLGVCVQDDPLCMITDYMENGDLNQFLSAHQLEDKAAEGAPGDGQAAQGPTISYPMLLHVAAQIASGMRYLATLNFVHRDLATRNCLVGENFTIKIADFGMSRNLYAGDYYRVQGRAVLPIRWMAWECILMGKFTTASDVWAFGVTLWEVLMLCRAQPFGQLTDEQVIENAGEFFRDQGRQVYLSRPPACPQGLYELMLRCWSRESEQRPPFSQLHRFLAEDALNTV
Chain of UniProt Q13470 (whole entry, looked up): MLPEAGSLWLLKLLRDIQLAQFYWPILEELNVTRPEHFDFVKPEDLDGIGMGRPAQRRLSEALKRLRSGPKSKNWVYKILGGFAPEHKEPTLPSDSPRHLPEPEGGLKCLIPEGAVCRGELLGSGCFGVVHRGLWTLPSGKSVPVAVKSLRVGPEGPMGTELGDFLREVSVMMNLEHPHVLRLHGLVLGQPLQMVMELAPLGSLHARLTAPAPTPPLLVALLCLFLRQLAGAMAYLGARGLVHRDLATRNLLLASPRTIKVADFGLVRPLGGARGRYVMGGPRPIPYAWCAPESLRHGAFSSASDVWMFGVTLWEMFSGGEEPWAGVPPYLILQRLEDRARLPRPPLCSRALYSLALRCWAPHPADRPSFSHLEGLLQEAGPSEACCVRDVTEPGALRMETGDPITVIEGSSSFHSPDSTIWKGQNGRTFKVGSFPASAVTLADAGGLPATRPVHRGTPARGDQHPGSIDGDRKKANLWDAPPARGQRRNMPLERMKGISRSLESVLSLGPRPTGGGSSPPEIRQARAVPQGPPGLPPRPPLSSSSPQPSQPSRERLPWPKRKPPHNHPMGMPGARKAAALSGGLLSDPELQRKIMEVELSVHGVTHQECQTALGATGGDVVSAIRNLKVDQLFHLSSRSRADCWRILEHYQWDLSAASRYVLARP
Chain of UniProt P36507 (whole entry, looked up): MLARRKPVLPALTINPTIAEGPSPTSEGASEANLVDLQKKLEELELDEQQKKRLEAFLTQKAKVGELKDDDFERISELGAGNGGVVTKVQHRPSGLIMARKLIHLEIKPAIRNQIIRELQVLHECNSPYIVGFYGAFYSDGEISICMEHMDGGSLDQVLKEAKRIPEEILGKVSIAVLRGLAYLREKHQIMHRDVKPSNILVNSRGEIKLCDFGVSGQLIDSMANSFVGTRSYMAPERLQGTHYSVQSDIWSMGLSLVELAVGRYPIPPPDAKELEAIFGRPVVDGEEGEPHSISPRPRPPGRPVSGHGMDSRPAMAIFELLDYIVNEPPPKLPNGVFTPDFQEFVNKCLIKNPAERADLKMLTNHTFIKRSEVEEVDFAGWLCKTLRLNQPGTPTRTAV

Sample 1
SMILES: CCC(=N\O)/C(C)=C/c1ccc(F)cc1
Observed: cell-free assay
Technique: competition with immobilised ligand
Concentration: 1 µM
target | remaining binding [%]
PIK3CA (Homo sapiens, UniProt P42336, H1047Y) | 82
KIT (Homo sapiens, UniProt P10721, V559D/V654A) | 73
MAP3K11 (Homo sapiens, UniProt Q16584) | 88
NLK (Homo sapiens, UniProt Q9UBE8) | 100
RIPK1 (Homo sapiens, UniProt Q13546) | 82
Tyrosine-protein kinase ABL1, phosphorylated (ABL1, Homo sapiens, UniProt P00519, Q252H) | 69
PKN1 (Homo sapiens, UniProt Q16512) | 100
PLK2 (Homo sapiens, UniProt Q9NYY3) | 78
HIPK2 (Homo sapiens, UniProt Q9H2X6) | 100
Ribosomal protein S6 kinase alpha-2, C-terminal kinase domain (RPS6KA2, Homo sapiens, UniProt Q15349) | 100
MAP2K2 (Homo sapiens, UniProt P36507) | 100
DDR1 (Homo sapiens, UniProt Q08345) | 89
Ribosomal protein S6 kinase alpha-3, N-terminal kinase domain (RPS6KA3, Homo sapiens, UniProt P51812) | 81
MAP2K7 (Homo sapiens, UniProt O14733) | 79
FGFR2 (Homo sapiens, UniProt P21802) | 93
Tyrosine-protein kinase ABL1, non-phosphorylated (ABL1, Homo sapiens, UniProt P00519) | 83
FGFR4 (Homo sapiens, UniProt P22455) | 96
MYLK (Homo sapiens, UniProt Q15746) | 100
DCLK3 (Homo sapiens, UniProt Q9C098) | 77
TNK1 (Homo sapiens, UniProt Q13470) | 66
PRKCD (Homo sapiens, UniProt Q05655) | 100
PIK3C2B (Homo sapiens, UniProt O00750) | 92
KIT (Homo sapiens, UniProt P10721, T670I/V559D) | 95

Sample 2
Target: Ephrin type-A receptor 1 (EPHA1, Homo sapiens, UniProt P21709)
Chain of UniProt P21709 (whole entry, looked up): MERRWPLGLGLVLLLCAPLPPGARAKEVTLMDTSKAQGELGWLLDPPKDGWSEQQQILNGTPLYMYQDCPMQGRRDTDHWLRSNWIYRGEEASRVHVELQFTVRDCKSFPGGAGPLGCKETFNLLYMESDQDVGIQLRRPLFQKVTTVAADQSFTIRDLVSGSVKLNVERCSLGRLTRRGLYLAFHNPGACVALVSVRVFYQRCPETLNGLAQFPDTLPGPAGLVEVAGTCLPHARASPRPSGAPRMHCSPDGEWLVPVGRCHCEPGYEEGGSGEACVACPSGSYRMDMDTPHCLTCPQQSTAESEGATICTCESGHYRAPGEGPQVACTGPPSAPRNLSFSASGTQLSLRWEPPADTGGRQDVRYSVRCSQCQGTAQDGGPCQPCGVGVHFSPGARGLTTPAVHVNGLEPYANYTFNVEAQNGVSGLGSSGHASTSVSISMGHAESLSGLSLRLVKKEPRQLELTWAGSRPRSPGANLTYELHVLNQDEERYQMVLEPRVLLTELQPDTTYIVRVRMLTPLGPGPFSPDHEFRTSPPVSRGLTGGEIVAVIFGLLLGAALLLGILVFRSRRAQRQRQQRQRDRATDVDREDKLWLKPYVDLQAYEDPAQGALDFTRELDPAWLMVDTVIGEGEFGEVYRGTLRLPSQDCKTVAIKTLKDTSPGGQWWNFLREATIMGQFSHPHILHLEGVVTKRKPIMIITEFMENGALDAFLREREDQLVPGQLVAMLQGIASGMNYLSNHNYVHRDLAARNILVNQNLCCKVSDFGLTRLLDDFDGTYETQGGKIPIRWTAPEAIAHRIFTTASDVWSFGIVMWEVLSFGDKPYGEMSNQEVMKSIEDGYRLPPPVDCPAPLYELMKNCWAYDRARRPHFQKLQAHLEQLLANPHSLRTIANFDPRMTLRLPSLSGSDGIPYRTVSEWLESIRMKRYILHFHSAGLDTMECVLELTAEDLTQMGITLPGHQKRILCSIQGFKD
Observed: enzyme activity
Action: inhibitor
Concentration: 0.5 µM
Reference: control
SMILES | remaining activity
Nc1nc(Nc2ccc(S(N)(=O)=O)cc2)nn1C(=O)c1c(F)cccc1F | 73.7%
COc1ccc(S(=O)(=O)N(CCO)c2ccccc2CN(C)CC=Cc2ccc(Cl)cc2)cc1 | 101%
CC#CC(=O)Nc1cc2c(Nc3ccc(F)c(Cl)c3)ncnc2cn1 | 88.3%
Fc1ccc(-c2nc3n(c2-c2ccncc2)CCS3)cc1 | 98.2%
N#CC(=C(N)Sc1ccc(N)cc1)c1ccccc1C(F)(F)F | 100%
CC(=O)c1ccc(N2CCOCC2)cc1O | 94%
Oc1ccc(Nc2nc(-c3ccc(Cl)cc3)cs2)cc1 | 92.6%
Nc1nccc(-c2c(-c3ccc(F)cc3)ncn2C2CCNCC2)n1 | 98.2%
CSc1nc(-c2ccnc(N[C@@H](C)c3ccccc3)c2)c(-c2ccc(F)cc2)[nH]1 (racemic) | 89.8%
Cc1cc(Nc2nc(-c3ccccc3)nc3ccccc23)n[nH]1 | 69.9%
NC(=O)c1ccc(N(C(N)=O)c2c(F)cccc2F)nc1-c1ccc(F)cc1F | 99.1%
Cc1ccc(NC2=CC(=O)c3sc(C)nc3C2=O)cc1 | 86.1%
O=C1NC(=O)C(c2c[nH]c3ccccc23)=C1c1c[nH]c2ccccc12 | 92.1%
CCc1[nH]c(-c2ccc(OC)cc2)nc1-c1ccncc1 | 116%
CCCC(=O)Oc1ccc2[nH]c(C(=O)c3cc4ccccc4[nH]3)cc2c1 | 88.8%
Nc1ncnc2c1cnn2-c1ccccc1 | 92.4%
Cc1cncc2cccc(S(=O)(=O)N3CCCN(C(=O)CN)C[C@@H]3C)c12 | 89.2%
O=C1Cc2c([nH]c3ccc([N+](=O)[O-])cc23)-c2ccccc2N1 | 94.8%
CC(C)(C)n1nc(Cc2cccc3ccccc23)c2c(N)ncnc21 | 29.8%
CC[n+]1c(/C=C/N(C)c2ccccc2)n(-c2ccccc2)c2ccc(-c3nc4ccccc4s3)cc21 | 77.1%
O=S(=O)(NCCNC/C=C/c1ccc(Br)cc1)c1cccc2cnccc12 | 83.7%

Sample 3
Host: mouse
Medium: microsomes or S9
Concentration: 2 µM
Time: 0.5 h
SMILES | remaining compound
COc1cc(=O)n2c(c1C(=O)NC1CCCCCC1)CCCC2 | 31.4%
CCCc1c(C)[nH]c2[nH]n(-c3ccccc3)c(=O)c2c1=O | > 99%
Cc1c(Br)c(-c2nc3c4ccccc4ncn3n2)nn1C | 0.252%
Cc1cc(C#N)cc(NC(=O)C(F)(F)F)c1NC(=O)c1cc(Br)nn1-c1ncccc1Cl | 4.42%
Cc1ncsc1CCOC(=O)c1ccc(Cl)cc1 | 0.625%
COC(=O)c1cc(Cl)c(NC(=O)c2cc(OC)c(OC)c(OC)c2)cc1OC | 49.7%
CCc1nc(C)c2c(n1)N(CCc1c(C)noc1C)C(=O)CC2 | 0.241%
O=C1CCCC1CC/C=C/S(=O)(=O)c1ccccc1 (stereo not drawn) | 0.997%
CCOc1cccc(CN(CCO)Cc2ccccc2C(=O)O)c1 | 78.7%
c1ccc2c(c1)CCCC2N1CCC2(CC1)Oc1ccccc1C1CC(c3ccncc3)=NN12 (stereo not drawn) | 1.42%
CN(c1ccccc1)c1ccc2oc(-c3cc(-c4cnn(C5CCNCC5)c4)cnc3N)nc2c1 | < 1%
O=S(=O)(c1cccc2cccnc12)N1CCCC1c1noc(CO)n1 (stereo not drawn) | 53.9%
COC(=O)CNC(=O)C(C)NC(=O)/C=C/c1cc(-n2nc(C)n(C(F)F)c2=O)c(F)cc1Cl (stereo not drawn) | 24.4%
COc1cc(=O)[nH]cc1C(=O)NCC(C)N1CCCCC1=O (stereo not drawn) | 86.9%
CC(C)(C)c1ccc(C(=O)Nc2cc(-n3cnnn3)ccc2N2CCOCC2)cc1 | 4.65%
Cc1nc2c(cc1Br)nc1n2C(C)CC1 (stereo not drawn) | 94.3%
C[C@H]1CCCC(=O)CCC/C=C/c2cc(OCc3ccc(Cl)c(Cl)c3)cc(OCc3ccc(Cl)c(Cl)c3)c2C(=O)O1 | 45.7%
CC(C)Cc1ccc(C(C)C(=O)Nc2ccc(O)cc2C(=O)O)cc1 (stereo not drawn) | 70.8%
Clc1ccc(-c2cn3c4ccccc4n(CCN4CCCCC4)c3n2)cc1Cl | 4.2%
CNc1cc(Cn2c(C(=O)c3cc(C)cc(Br)c3)c(C(C)C)c(=O)[nH]c2=O)cc(F)n1 | 5.23%
O=C(c1ccc2[nH]cnc2c1)N1CCc2nc3cc(-c4ccccc4Cl)[nH]n3c(=O)c2C1 | 72.8%

Sample 4
Structure (SMILES): C=CCc1ccc(O)c(-c2ccc(O)c(CC=C)c2)c1
ANO1 del476-501/F628A: Anoctamin-1 (ANO1, Homo sapiens, UniProt Q5XXA6, del476-501/F628A)
Chain of UniProt Q5XXA6 (whole entry, unmodified, looked up): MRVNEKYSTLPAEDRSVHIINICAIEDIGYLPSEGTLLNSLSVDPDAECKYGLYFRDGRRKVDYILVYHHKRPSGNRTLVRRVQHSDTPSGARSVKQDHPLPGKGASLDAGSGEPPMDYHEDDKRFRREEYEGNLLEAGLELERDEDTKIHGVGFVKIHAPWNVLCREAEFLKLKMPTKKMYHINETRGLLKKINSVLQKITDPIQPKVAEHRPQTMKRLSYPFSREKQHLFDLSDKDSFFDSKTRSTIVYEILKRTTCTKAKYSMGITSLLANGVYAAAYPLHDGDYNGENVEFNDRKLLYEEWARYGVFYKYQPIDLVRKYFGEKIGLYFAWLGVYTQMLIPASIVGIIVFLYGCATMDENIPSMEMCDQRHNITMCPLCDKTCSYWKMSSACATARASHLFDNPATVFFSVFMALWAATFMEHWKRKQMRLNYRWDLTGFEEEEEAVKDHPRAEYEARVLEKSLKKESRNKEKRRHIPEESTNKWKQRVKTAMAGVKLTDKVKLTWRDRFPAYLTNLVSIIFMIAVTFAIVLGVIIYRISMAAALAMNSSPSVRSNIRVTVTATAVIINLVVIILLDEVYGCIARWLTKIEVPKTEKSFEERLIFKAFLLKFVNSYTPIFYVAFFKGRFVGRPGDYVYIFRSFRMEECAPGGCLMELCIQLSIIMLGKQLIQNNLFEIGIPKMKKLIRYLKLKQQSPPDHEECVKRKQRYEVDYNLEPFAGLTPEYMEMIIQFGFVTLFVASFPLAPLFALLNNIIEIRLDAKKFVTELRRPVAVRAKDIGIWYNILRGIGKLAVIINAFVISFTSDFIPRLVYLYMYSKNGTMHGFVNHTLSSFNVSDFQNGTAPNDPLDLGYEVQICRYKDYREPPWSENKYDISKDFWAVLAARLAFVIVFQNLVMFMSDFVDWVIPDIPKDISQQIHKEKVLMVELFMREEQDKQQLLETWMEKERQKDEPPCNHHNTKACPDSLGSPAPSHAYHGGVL
ANO1 del476-501/E659A: Anoctamin-1 (ANO1, Homo sapiens, UniProt Q5XXA6, del476-501/E659A)
ANO1 del476-501: Anoctamin-1 (ANO1, Homo sapiens, UniProt Q5XXA6, del476-501)
target | test | setting | normalized current
ANO1 del476-501/F628A | chloride current, whole-cell voltage clamp | 1 µM, concentration-response at -60 mV, together with: 4 µM Ca2+ | -0.551
ANO1 del476-501/F628A | chloride current, whole-cell voltage clamp | 10 µM, concentration-response at -100 mV, together with: 4 µM Ca2+ | -0.643
ANO1 del476-501/F628A | chloride current, whole-cell voltage clamp | 10 µM, concentration-response at 60 mV, together with: 4 µM Ca2+ | 0.464
ANO1 del476-501/E659A | chloride current, inside-out patch clamp | 10 µM, membrane voltage -60 mV | -0.621
Anoctamin-1 (ANO1, Homo sapiens, UniProt Q5XXA6, del476-501/E649A) | ion current, inside-out patch clamp | 10 µM, E623A mutant at 0 mV | -0.00022
ANO1 del476-501/E659A | chloride current, inside-out patch clamp | 10 µM, membrane voltage 40 mV | 0.341
ANO1 del476-501 | chloride current, whole-cell voltage clamp | 3 µM, wild type, I-V at -80 mV, together with: 4 µM Ca2+ | -0.577
Anoctamin-1 (ANO1, Homo sapiens, UniProt Q5XXA6, del476-501/E649A/R541A) | chloride current, inside-out patch clamp | 10 µM, membrane voltage -20 mV | -0.0917
TMEM16A (human) K603A/E623A | chloride current, inside-out patch clamp | 10 µM, membrane voltage -20 mV | -0.0865
ANO1 del476-501/F628A | chloride current, whole-cell voltage clamp | 10 µM, concentration-response at 100 mV, together with: 4 µM Ca2+ | 0.734
ANO1 del476-501 | chloride current, whole-cell voltage clamp | 1 µM, wild type, I-V at -20 mV, together with: 4 µM Ca2+ | -0.183
ANO1 del476-501 | chloride current, whole-cell voltage clamp | 3 µM, wild type, concentration-response at 100 mV, together with: 4 µM Ca2+ | 0.744
Anoctamin-1 (ANO1, Homo sapiens, UniProt Q5XXA6, del476-501/R631A) | chloride current, inhibitor, whole-cell voltage clamp | 30 µM, R605A mutant | 0.126

Excerpt of the above (sample 4):
target | test | setting | normalized current
ANO1 del476-501/F628A | chloride current, whole-cell voltage clamp | 1 µM, concentration-response at -60 mV, together with: 4 µM Ca2+ | -0.551
ANO1 del476-501 | chloride current, whole-cell voltage clamp | 3 µM, wild type, concentration-response at 100 mV, together with: 4 µM Ca2+ | 0.744
Anoctamin-1 (ANO1, Homo sapiens, UniProt Q5XXA6, del476-501/E649A/R541A) | chloride current, inside-out patch clamp | 10 µM, membrane voltage -20 mV | -0.0917
Anoctamin-1 (ANO1, Homo sapiens, UniProt Q5XXA6, del476-501/R631A) | chloride current, inhibitor, whole-cell voltage clamp | 30 µM, R605A mutant | 0.126
ANO1 del476-501/F628A | chloride current, whole-cell voltage clamp | 10 µM, concentration-response at 60 mV, together with: 4 µM Ca2+ | 0.464
ANO1 del476-501/F628A | chloride current, whole-cell voltage clamp | 10 µM, concentration-response at -100 mV, together with: 4 µM Ca2+ | -0.643
